Assay results pooled from the literature.
Compare with care: the assays were run in different laboratories. Values joined by “and” are separate records of one study, mostly repeats; a detail may differ. ± marks the error that the study gave.

Compound | assay | system | conditions | how to read | measurement | value
COc1ccc2[nH]c([S+]([O-])Cc3ncc(C)c(OC)c3C)nc2c1 (stereo not drawn) |  | healthy Chinese volunteers, plasma | oral, 20 mg, fed, CYP2C19 rapid metabolizers |  | AUC(0-inf) | 393 ± 250 ng·h/mL
Cc1nc2ccc(OCc3ccc(C(F)(F)F)cc3)cc2[nH]1 |  | Balb/c mouse, male, lungs | intravenous, 1 mg/kg, 3 h | reference: tissue over plasma | tissue/plasma ratio | 2.9 ± 0.6
CN1CCN(C(=O)c2ccc3cc(CCNc4ccnc5ccc(C#N)cc45)ccc3c2)CC1 |  | female BALB/c mouse, CT26 tumour, tumour and blood | intravenous, 2.5 mg/kg | reference: tumour over blood | tissue/plasma ratio | ~20
C[C@@H](N)C1CCN(S(=O)(=O)c2cccc3cnccc23)CC1 |  | healthy volunteers | 150 mg single dose, fed |  | participants with TEAEs | 40%
O=C1NC(=O)/C(=C/c2ccc3ncnc(N4CCC(F)(F)CC4)c3n2)S1 |  | NSG mice | dose not given, day 2 |  | body weight | 20.3 g and 19.2 g and 17.7 g
CNCc1ccc(-c2[nH]c3cc(F)cc4c3c2CCNC4=O)cc1 |  | patients | oral, 360 mg twice daily, all grades |  | any adverse event incidence | 100%
C[C@@H](Oc1ccc(S(C)(=O)=O)cc1C(=O)N1C[C@@H]2C[C@]2(c2cc(C(F)(F)F)on2)C1)C(F)(F)F |  | young humans, plasma | oral, 25 mg once daily, single dose, geometric mean |  | Vz/F | 329 L
CCN1/C(=C/C(C)=O)Sc2ccc(F)cc21 |  | cynomolgus monkey | oral, 10 mg/kg, 1 h post-dose |  | systolic blood pressure | 110 ± 7 mmHg
CNc1ccc(-c2nc3ccc(O)cc3s2)cc1 [carbon-11 labelled] | microPET/CT imaging | B6SJL mouse, normal, brain | intravenous, 10 min |  | SUV | 0.381 ± 0.118
O=C(Nc1nc2cccc(-c3ccc(CN4CCS(=O)(=O)CC4)cc3)n2n1)C1CC1 | population PK model | human | oral |  | slower absorption mixture fraction | 0.818
C[C@H]1C=C(Cc2ccccc2)C(=O)O1 |  | water/sediment | 20 °C, whole system, longest, aerobic dark |  | DT50 | 8.77 days
CC[C@H](C)[C@H](NC(=O)[C@H](Cc1ccccc1)NC(=O)[C@H](CCC(=O)O)NC(=O)[C@H](CCCCNC(=O)COCCOCCNC(=O)COCCOCCNC(=O)CC[C@H](NC(=O)CCCCCCCCCCCCCCCCC(=O)O)C(=O)O)NC(=O)[C@H](C)NC(=O)[C@H](C)NC(=O)[C@H](CCC(N)=O)NC(=O)CNC(=O)[C@H](CCC(=O)O)NC(=O)[C@H](CC(C)C)NC(=O)[C@H](Cc1ccc(O)cc1)NC(=O)[C@H](CO)NC(=O)[C@H](CO)NC(=O)[C@@H](NC(=O)[C@H](CC(=O)O)NC(=O)[C@H](CO)NC(=O)[C@@H](NC(=O)[C@H](Cc1ccccc1)NC(=O)[C@@H](NC(=O)CNC(=O)[C@H](CCC(=O)O)NC(=O)C(C)(C)NC(=O)[C@@H](N)Cc1cnc[nH]1)[C@@H](C)O)[C@@H](C)O)C(C)C)C(=O)N[C@@H](C)C(=O)N[C@@H](Cc1c[nH]c2ccccc12)C(=O)N[C@@H](CC(C)C)C(=O)N[C@H](C(=O)N[C@@H](CCCNC(=N)N)C(=O)NCC(=O)N[C@@H](CCCNC(=N)N)C(=O)NCC(=O)O)C(C)C | 12-lead Holter ECG | healthy humans | subcutaneous, 1.5 mg once weekly, 42 h, steady state | reference: placebo | QTcB change from baseline | 8.7 ms
CCCCCCCCCCCCCCCC(=O)N[C@@H](CCC(=O)NCCCC[C@H](NC(=O)[C@H](C)NC(=O)[C@H](C)NC(=O)[C@H](CCC(N)=O)NC(=O)CNC(=O)[C@H](CCC(=O)O)NC(=O)[C@H](CC(C)C)NC(=O)[C@H](Cc1ccc(O)cc1)NC(=O)[C@H](CO)NC(=O)[C@H](CO)NC(=O)[C@@H](NC(=O)[C@H](CC(=O)O)NC(=O)[C@H](CO)NC(=O)[C@@H](NC(=O)[C@H](Cc1ccccc1)NC(=O)[C@@H](NC(=O)CNC(=O)[C@H](CCC(=O)O)NC(=O)[C@H](C)NC(=O)[C@@H](N)Cc1cnc[nH]1)[C@@H](C)O)[C@@H](C)O)C(C)C)C(=O)N[C@@H](CCC(=O)O)C(=O)N[C@@H](Cc1ccccc1)C(=O)N[C@H](C(=O)N[C@@H](C)C(=O)N[C@@H](Cc1c[nH]c2ccccc12)C(=O)N[C@@H](CC(C)C)C(=O)N[C@H](C(=O)N[C@@H](CCCNC(=N)N)C(=O)NCC(=O)N[C@@H](CCCNC(=N)N)C(=O)NCC(=O)O)C(C)C)[C@@H](C)CC)C(=O)O | measured: TNF-α, IL-10, IL-1β, IL-6 | C57BL/6N mice, high-fat diet-induced obese, serum | intraperitoneal, dose not given, 29 days | reference: vehicle | serum inflammatory cytokines | no effect
OC[C@H]1O[C@@H](c2ccc(Cl)c(Cc3ccc(O[C@H]4CCOC4)cc3)c2)[C@H](O)[C@@H](O)[C@@H]1O |  | Japanese type 1 diabetes patients, blood | 2.5 mg, day 28 | reference: baseline | change in Sodium | 0 mEq/L
C=CC(=O)Nc1cc(Nc2nccc(-c3cn(C)c4ccccc34)n2)c(OC)cc1N(C)CCN(C)C | storage stability | human dried blood spot | 30 d, on ice, MQC level |  | recovery | 59.9%
CC#CC(=O)N1CC[C@@H](n2c(=O)n(-c3ccc(Oc4ccccc4)cc3)c3c(N)ncnc32)C1 |  | human, fasting, plasma | oral, 320 mg once daily, cycle 1 day 1 |  | AUC(0-24h) | 5700 ± 578 ng·h/mL
Cc1cc(Nc2ccc(S(F)(F)(F)(F)F)cc2)n2nc(C(C)(F)F)nc2n1 |  | Plasmodium vivax malaria patients | oral, 600 mg |  | adverse event Stomatitis | 11.1%
CO[C@@H]1[C@H](OC(=O)N2CC(CCN3CCOCC3)C2)CC[C@]2(CO2)[C@H]1[C@@]1(C)O[C@@H]1CC=C(C)C |  | human | dose not given, day 28, multiple ascending dose | reference: baseline | heart rate change | -0.2 ± 6.9 bpm
Cc1c(C(=O)O)ccc2c3n(nc12)[C@@H]1[C@H](C3)N(CC2CC2)[C@@]2(C(=O)Nc3cc(Cl)ccc32)[C@H]1c1cccc(Cl)c1F |  | female BALB/c nude mice, plasma | oral, 1 mg/kg twice daily, 9 h, SJSA-1 tumour-bearing |  | plasma concentration | 1160 nM and 1480 nM and 1510 nM and 1520 nM
N#CCNC(=O)c1ccc(-c2ccnc(Nc3ccc(N4CCOCC4)cc3)n2)cc1 |  | healthy volunteers | oral, 100 mg, together with: ritonavir 100 mg |  | grade 3 adverse events | 0%
C=CC(=O)NC1CCN(c2ncc3ncnc(Nc4ccc(Oc5ccc6c(c5)ncn6C)c(C)c4)c3n2)CC1 | measured: total drug-related adverse events | human male | oral, dose not given, AEs, treatment-related, on drug, CTCAE |  | adverse events incidence | 6%
COc1ccnc(C(=O)N[C@H]2COC(=O)[C@H](Cc3ccccc3)[C@@H](O)[C@H](C)OC2=O)c1O | aerobic dark soil incubation | clay soil | 20 °C, modelling endpoint |  | DT50 | 10.7 days
Cc1nc(-c2ccc(OCC(C)C)c(C#N)c2)sc1C(=O)O |  | healthy Chinese subjects | oral, 40 mg single, fed |  | participants with AEs grade 1 or above | 25%
CC(=O)/N=S(/c1ccccc1)c1ccc(C)cc1 (stereo not drawn) |  | human liver microsomes |  | reference: hepatic blood flow | metabolic stability | < 23%
Cc1cn([C@H]2C[C@H](N=[N+]=[N-])[C@@H](CO)O2)c(=O)[nH]c1=O |  | human, both sexes, PBMCs | oral, 600 mg, single dose |  | MRT(0-t) | 4.94 ± 19.3 h
COc1ccc(C[C@@H](C)[C@@H](C)Cc2ccc(OC)c(OC)c2)cc1OC |  | beagle dog, male, plasma | oral, 300 mg/kg/day, day 1 |  | AUC(0-t) | 29300 ± 19200 ng·h/mL
O=C(COc1ccc(Cl)cc1)NC12CC(c3nnc([C@H]4C[C@@H](OC(F)(F)F)C4)o3)(C1)C2 | measured: Fatigue | human | 28 (unit not given) |  | adverse event incidence | 31.6%

Compound | assay | system | conditions | how to read | measurement | value
NC[C@@]1(CC(=O)O)[C@@H]2CC[C@H]3C[C@@H]2[C@@H]1C3 |  | human, mild renal impairment, urine | oral, 20 mg single dose |  | cumulative amount excreted | 14.5 ± 2.71 mg
N#Cc1ccc2c(c1)[C@H]1CCCN(C(=O)c3ccc4[nH]cnc4c3)[C@H]1C2 |  | human | 80 mg, day 7 |  | median ACTH level | 7.6 pmol/L
N[C@@H]1c2ccccc2OC12CCN(c1cnc3c(N4CCCc5ncccc54)n[nH]c3n1)CC2 |  | advanced metastatic solid tumour patients, plasma | oral, 100 mg once daily, cycle 1 day 15, geometric mean |  | AUC(0-tau) | 10500 ng·h/mL
Cc1cc(-c2nccc3c2ccn3CC(=O)Nc2ccc(-c3cnccn3)cn2)ccn1 |  | human | 20 mg once daily, multiple ascending dose |  | subjects with breath odour | 0%
COCc1cc(C(=O)Nc2cc([C@H]3CC[C@@H](OC(=O)NC(C)C)C3)[nH]n2)n(C)n1 |  | OVCAR-3 xenograft, NOD/SCID gamma mice, plasma | oral, 125 twice daily, PK/PD study |  | Tmax | 7.5 h
CC(C)n1c(Nc2cccnc2)nc2cnc(Nc3ccc(N4CCN(C)CC4)cc3)nc21 | measured: alanine aminotransferase increased | healthy male subjects | oral, 100 mg, study, together with: itraconazole |  | subjects with adverse event | 7.1%
O=C1NCCc2nc(OCc3cccc(F)c3)ccc21 | measured: Convulsions | Sprague-Dawley rat male | oral, 100 mg/kg, 30 min | direction not given | Irwin test score | 0
CCc1cc(C(=O)NC)c2nccc(N3CCc4c(cc(Cn5ccnc5)cc4-c4cn(C)nc4C(F)(F)F)C3=O)c2c1 |  | Sprague Dawley rats | oral, 100 mg/kg once daily, 7 days | reference: vehicle | serum AST change | 4.8%
O=C(Nc1nc2cccc(-c3ccc(CN4CCS(=O)(=O)CC4)cc3)n2n1)C1CC1 | measured: constipation | human rheumatoid arthritis patients | oral, 75 mg once daily, 4 weeks, regardless of relatedness |  | treatment-emergent adverse events | 0%
CCCCCCCOc1ccc(CCC(N)(CO)CO)cc1C(F)(F)F.Cl |  | healthy men | oral, 0.25 mg, day 21 |  | renal clearance | 0.113 mL/min
C=CC(=O)N1C[C@H](n2c(C#CC3CC3)c(C(=O)N[C@H](C)c3ccccc3)c3c(N)ncnc32)C[C@@H]1C |  | BALB/cAJcl-nu/nu male mouse, plasma | oral, 12.5 mg/kg, repeated dosing 7 days |  | apparent half-life | 0.69 h
CCOc1c([C@H](C)n2nc(C)c3c(N)ncnc32)cc(Cl)c(F)c1[C@@H]1CNC(=O)C1 | ECG | previously treated B-cell malignancy patients | oral, 45 mg once daily, baseline QTcF ≤450 ms |  | observations ΔQTcF >30 ≤60 ms | 0%
C[C@@H]1CCO[C@H]2Cn3cc(C(=O)NCc4ccc(F)cc4F)c(=O)c(O)c3C(=O)N12 | population PK, post-hoc | infants aged ≥1 months, 3 to <6 kg, plasma | oral, 10 mg dispersible tablet, 24 h, steady state, geometric mean |  | plasma concentration | 1190 ng/mL
CC(C)(C)NCC(O)c1cc(O)cc(O)c1 (stereo not drawn) | equilibrium dialysis | rat, plasma |  |  | fraction unbound | 0.66
Nc1ncc(-c2ccncc2)nc1Nc1ccc2[nH]ccc2c1 |  | C57BL mice, plasma | oral, 30 mg/kg |  | tmax | 0.5 h
C[C@H]1Oc2cc(cnc2N)-c2c(nn(C)c2C#N)CN(C)C(=O)c2ccc(F)cc21 | population PK | normal hepatic function (NCI A), plasma | oral, 100 mg, mean, single dose |  | clearance | 151 mL/min
Cc1cc(NC2CCN(C(=O)OC3CCN(C(=O)/C=C/CN(C)C)C3)CC2)n2ncc(C(C)C)c2n1 (stereo not drawn) | Phase I dose escalation CTCAE v4.0, measured: Dyspepsia | patients with advanced solid tumours | dose not given, all dose schedules any grade |  | patients with adverse event | 6%
CC(C)(C(=O)N1CCOc2c(C#N)cncc2C1)C(F)F | measured: medical device site dermatitis | healthy humans, both sexes | oral, 10 mg single dose |  | subjects with TEAE | 0%
O=C(O)CCC(=O)O.[2H]C([2H])([2H])Oc1cc(C)c2[nH]ccc2c1CN1CC[C@@H](C2CC2)C[C@H]1c1ccc(C(=O)O)cc1 | multiple ascending dose | healthy Chinese subjects | 100 mg twice daily |  | subjects with neutropenia | 0%
NS(=O)(=O)OC[C@@H]1C[C@@H](n2ccc3c(N[C@H]4CCc5ccccc54)ncnc32)C[C@@H]1O | LC-MS/MS, non-compartmental | human, plasma | intravenous, all dose levels, cycle 1 day 8, median, together with: irinotecan/temozolomide |  | AUC(0-24h) | 1340 ng·h/mL
Cc1cccc(CNC(=O)c2cn(CCNC(=O)c3ccccc3S)c3cc4c(cc3c2=O)OC(F)(F)O4)n1 |  | Sprague-Dawley rat, male, whole blood | intramuscular, 3 mg/kg of parent drug |  | bioavailability | 76%
Cc1ccc(-c2cc(C(F)(F)F)nn2-c2ccc(S(N)(=O)=O)cc2)cc1 |  | rat, stomach | concentration not given, 4 h | reference: normal control | ulcer preventive index | 73%
O=C1CC[C@H](N2Cc3cc(N4CCN(CC5CCN(c6ccc([C@@H]7c8ccc(O)cc8CC[C@@H]7c7ccccc7)cc6)CC5)CC4)ccc3C2=O)C(=O)N1 | measured: Nausea | human | oral, 200 mg, together with: dabigatran etexilate 75 mg |  | participants with adverse event | 0%
C=CCN1CC(=O)N2[C@@H](Cc3ccc(O)cc3F)C(=O)N(Cc3cccc(N4CC(N5CCN(CC)CC5)C4)n3)C[C@@H]2N1C(=O)NCc1ccccc1 | measured: Vomiting | advanced solid tumour patients | oral, 100 mg twice daily, expansion part, any grade |  | treatment-related adverse events | 55.6%
[NH2][Pt]([NH2])([Cl])[Cl] |  | C57BL/6J mice, kidney injury model | intraperitoneal, 20 mg/kg, 72 h | reference: control | body weight loss | 24.8%
CCN1CCN(Cc2ccc(NC(=O)c3ccc(C)c(NC(=O)c4cncc(-c5cccs5)c4)c3)cc2C(F)(F)F)CC1 | LC-MS/MS | C57BL/6 mouse, plasma | intraperitoneal, 20 mg/kg single dose, 0.25 h |  | mean plasma concentration | 614 ng/mL
O=C1CCc2ccc(OCCCCN3CCN(c4cccc(Cl)c4Cl)CC3)cc2N1 | measured: Sedation | patients, CYP2D6 intermediate metabolizers | dose not given, long-acting oral or depot |  | adverse event incidence | 5.8%
